Experimental data of several laboratories.
Protocols differ between the studies behind these lines. Numbers after ± are the reported error. Converted amounts (≈) assume the structure as drawn.

By UniProt entry, the sequences of proteins in these tests, tags left out.
UniProt P50406, whole entry: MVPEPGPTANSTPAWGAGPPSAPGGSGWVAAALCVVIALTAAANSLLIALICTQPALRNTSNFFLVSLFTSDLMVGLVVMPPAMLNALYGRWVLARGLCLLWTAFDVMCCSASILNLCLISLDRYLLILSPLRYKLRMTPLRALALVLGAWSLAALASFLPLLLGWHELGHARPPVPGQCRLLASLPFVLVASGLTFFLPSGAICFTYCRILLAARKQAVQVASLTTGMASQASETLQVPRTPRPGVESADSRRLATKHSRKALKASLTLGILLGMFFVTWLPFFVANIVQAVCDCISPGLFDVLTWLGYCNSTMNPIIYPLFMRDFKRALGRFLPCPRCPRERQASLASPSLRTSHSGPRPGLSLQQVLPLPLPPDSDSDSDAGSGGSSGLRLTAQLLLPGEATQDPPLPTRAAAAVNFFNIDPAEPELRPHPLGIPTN
UniProt Q9H3Y6, whole entry: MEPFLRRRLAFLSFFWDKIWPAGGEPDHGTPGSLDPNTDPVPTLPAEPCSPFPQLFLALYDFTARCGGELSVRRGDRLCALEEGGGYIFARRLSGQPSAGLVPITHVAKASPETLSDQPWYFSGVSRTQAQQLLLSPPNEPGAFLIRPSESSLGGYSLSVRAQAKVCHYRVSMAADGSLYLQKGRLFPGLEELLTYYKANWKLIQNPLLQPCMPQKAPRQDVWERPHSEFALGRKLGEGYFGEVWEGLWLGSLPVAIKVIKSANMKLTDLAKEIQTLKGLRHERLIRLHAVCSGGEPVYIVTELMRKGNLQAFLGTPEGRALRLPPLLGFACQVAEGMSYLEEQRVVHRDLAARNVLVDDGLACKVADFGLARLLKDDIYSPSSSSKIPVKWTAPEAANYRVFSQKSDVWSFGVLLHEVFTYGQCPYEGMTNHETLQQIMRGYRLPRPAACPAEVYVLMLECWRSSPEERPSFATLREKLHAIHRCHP

| Structure (SMILES) | target or system | test | test system | conditions | how to read | quantity | result |
| --- | --- | --- | --- | --- | --- | --- | --- |
| CCc1nc(N)nc(N)c1C#CCc1cc(OC)c(OC)c(-c2ccncc2)c1 | Staphylococcus aureus |  | MRSA isolate UCH 127 |  |  | MIC | 0.312 µg/mL |
| CCCN1CCN(c2ccc3c(c2)C2CC3CCN2C(=O)OCc2ccccc2)CC1 (stereo not shown) | 5-hydroxytryptamine receptor 6 (HTR6, Homo sapiens, UniProt P50406) | binding, radioligand binding |  |  |  | Ki | 2510 nM |
| CCc1nc(N)nc(N)c1C#CCc1cc(OC)cc(-c2ccc(C(=O)O)cc2)c1 | Staphylococcus aureus |  | MRSA clinical isolate dfrA |  |  | MIC | > 20 µg/mL |
| CCCc1nn2c(=O)cc(CSc3nc(-c4ccc(C)cc4)nc4cc(=O)[nH]n34)nc2s1 | dengue virus 2 | viral replication, plaque reduction | BHK-21, NGC |  |  | IC50 | 1000 to 10000 nM |
| CCCCCCC1c2ccc(O)cc2Oc2cc(O)ccc21 | Escherichia coli |  | MC4100 | no additive |  | MIC | > 373 µg/mL |
| Oc1ccc(C2NCCc3c2[nH]c2ccc(Cl)cc32)cc1O (stereo not shown) | dengue virus 2 | viral replication, plaque reduction | BHK-21, NGC |  |  | IC50 | < 1000 nM |
| O=c1ccc2[n+]([O-])c3ccc(O)cc3oc-2c1 | Mycobacterium tuberculosis |  | mc2 6206 bedaquiline-resistant MmpL5 regulator mutant | 7 days |  | MIC90 | 118 µM (≈ 27 µg/mL) |
| CC(C)Cc1nnc2c(C(=O)NC3c4ccccc4-c4ccccc43)cccn12 | Escherichia coli | broth microdilution | MB5746 rpoZ Δ23-91 frameshift |  | reference: mutant over wild type | MIC ratio | > 32 |
| C[C@H](Cc1ccc(O)c(O)c1)[C@@H](C)Cc1ccc(O)c(O)c1 |  |  | human skin | 3% solution, 8 h, skin UV-treated 10 min |  | total amount permeated | 30.4 ± 2.47 µg |
| Cn1c([N+](=O)[O-])cnc1COc1ccc2nc3ccc(=O)cc-3oc2c1 | Mycobacterium tuberculosis |  | mc2 6206 PA-824-resistant ddn mutant | 7 days |  | MIC90 | > 256 µM |
| Cc1ccc(CCNC(=O)c2cnn3c(O)c(Cc4cc(C)ccc4C)c(C)nc23)cc1 | dengue virus 2 | viral replication, single-cycle viral yield | New Guinea C | 5 µM |  | inhibition | > 90% |
| Cc1ccc(C(C)C)c(Oc2cnc(N)nc2N)c1 | Staphylococcus aureus |  | RN4220, LB broth | 19 to 24 h |  | MIC | ~50 µM |
| CSc1nc(Cl)cc(Sc2nnc(-c3cc(C(F)(F)F)cc(C(F)(F)F)c3)[nH]2)n1 | Shigella flexneri |  | ATCC 12022 | added: NAB7061 4 µg/mL |  | MIC | 0.3 µg/mL |
| CC#C/C(=N\OC[C@H]1COCCN1)c1ccc2ncnc(Nc3ccc(OCc4cccc(F)c4)c(Cl)c3)c2c1 | Tyrosine-protein kinase Srms (SRMS, Homo sapiens, UniProt Q9H3Y6) | kinase activity |  | 10 µM |  | inhibition | 43.3% |
| Nc1c(C(=O)Nc2cc(Cl)ccc2Cl)sc2nc(-c3cccs3)ccc12 | Escherichia coli |  |  |  |  | MIC50 | 80 µM (≈ 33.6 µg/mL) |
| COc1ccc(Nc2cc(C)c3cc(NC(=O)c4ccc(N(C)C)cc4)ccc3n2)cc1 | dengue virus 4 | viral replication, plaque reduction | BHK-21, TVP360 |  |  | IC50 | 1000 to 10000 nM |
| CCN1CCN(Cc2ccc(NC(=O)c3ccc(C)c(/C=C/c4cnc5[nH]ccc5c4OC)c3)cc2C(F)(F)F)CC1 | TPM3-ALK fusion | kinase-CDC37 interaction, cell-based kinome screen |  | 5 µM | reference: vehicle | log2 fold change | -0.172 |
| CCc1nc(N)nc(N)c1C#C[C@H](C)c1cc(OC)cc(-c2ccc(C(=O)O)cc2)c1 | Staphylococcus aureus |  | MRSA isolate UCH 1 |  |  | MIC | 5 µg/mL |
| CCNC(=O)C(CCCCNC(=O)CCOCCOCCOCCOCCNC(=O)CCNc1ccc(-c2nc3ccc(C)cc3s2)cc1)NC(=O)C(CCCCNC(=O)CCOCCOCCOCCOCCNC(=O)CCNc1ccc(-c2nc3ccc(C)cc3s2)cc1)NC(=O)C(CCCCNC(=O)CCOCCOCCOCCOCCNC(=O)CCNc1ccc(-c2nc3ccc(C)cc3s2)cc1)NC(=O)C(CCCCNC(=O)CCOCCOCCOCCOCCNC(=O)CCNc1ccc(-c2nc3ccc(C)cc3s2)cc1)NC(=O)CCOCCOCCOCCOCCNC(=O)CCNc1ccc(-c2nc3ccc(C)cc3s2)cc1 (stereo not shown) | HIV-1 | SEVI-enhanced infection | TZM-bl, IIIB | 200 nM |  | infectivity reduction | ~50% |

Some of these lines once more:
| Structure (SMILES) | target or system | test | test system | conditions | how to read | quantity | result |
| --- | --- | --- | --- | --- | --- | --- | --- |
| Cn1c([N+](=O)[O-])cnc1COc1ccc2nc3ccc(=O)cc-3oc2c1 | Mycobacterium tuberculosis |  | mc2 6206 PA-824-resistant ddn mutant | 7 days |  | MIC90 | > 256 µM |
| Cc1ccc(CCNC(=O)c2cnn3c(O)c(Cc4cc(C)ccc4C)c(C)nc23)cc1 | dengue virus 2 | viral replication, single-cycle viral yield | New Guinea C | 5 µM |  | inhibition | > 90% |
| Cc1ccc(C(C)C)c(Oc2cnc(N)nc2N)c1 | Staphylococcus aureus |  | RN4220, LB broth | 19 to 24 h |  | MIC | ~50 µM |
